Results pooled from the literature.
Lines come from different studies, so protocols differ.

SMILES	test	test system	conditions	quantity	value
Cc1cc(Nc2cc3ncccc3c(N[C@@H]3C[C@H]4CC[C@@H](C3)N4CCC#N)n2)n[nH]1	–	healthy human	oral, 300 mg multiple doses, 14 days	subjects with contact dermatitis	0%
C[C@@H](c1nc(-c2ccc(C#N)cc2)cs1)[C@](O)(Cn1cncn1)c1cc(F)ccc1F	measured: contact dermatitis	humans	oral, dose not given, added: ketoconazole	subjects with TEAEs	8.3%
CN1CCN(c2cccc3c2CCN(C(=O)/C=C/c2c(-n4cnnn4)ccc(Cl)c2F)[C@@H]3C(=O)Nc2ccc(C(=O)O)cc2)C(=O)C1	–	healthy human subjects	intravenous infusion, 1.5 mg/h, 2 h	subjects with headache	16.7%
CNC(=O)c1ccc(-c2cnc3ncc(Cc4ccc5ncccc5c4)n3n2)cc1F	–	healthy human subjects	oral, 200 mg, Hypertension, all grades, all causality, added: itraconazole 200 mg/day	subjects with adverse event	7.4%
C[C@@H](Oc1ccc(S(C)(=O)=O)cc1C(=O)N1C[C@@H]2C[C@]2(c2cc(C(F)(F)F)on2)C1)C(F)(F)F	–	human	oral, 25 mg	subjects with frequent bowel movements	16.7%
C[C@H]1CN(C(=O)CC#N)[C@]12CCN(c1ncnc3[nH]ccc13)C2	–	healthy human	oral, 12 mg single	subjects with Headache	0%
CC(C)(C(=O)N1CCOc2c(C#N)cncc2C1)C(F)F	measured: medical device site dermatitis	healthy humans, both sexes	oral, 30 mg single dose	subjects with TEAE	0%
Cc1cc(-c2nccc3c2ccn3CC(=O)Nc2ccc(-c3cnccn3)cn2)ccn1	–	human	20 mg once daily, multiple ascending dose	subjects with procedural pain	0%

Excerpt of the above:
SMILES	test	test system	conditions	quantity	value
CNC(=O)c1ccc(-c2cnc3ncc(Cc4ccc5ncccc5c4)n3n2)cc1F	–	healthy human subjects	oral, 200 mg, Hypertension, all grades, all causality, added: itraconazole 200 mg/day	subjects with adverse event	7.4%
